Measurements from different studies.
Protocols differ between the studies behind these lines. ± gives the spread as reported.

CCCCCC(O)C=CC=O (stereo not shown) gave a cell death of ~70% (rat primary cortical neurons; MTT; 100 µM, 20 h).
Under cytotoxicity, N=C(N)NCCC[C@H](NC(=O)[C@H](Cc1ccccc1)NC(=O)CCCC(N)=O)C(=O)c1nc2ccccc2s1 is recorded as “not toxic” (Vero E6; CellTiter-Glo; 10 µM, 24 h; reference: DMSO).
CC1(C)CCC(c2ccc(Cl)cc2)=C(CN2CCN(c3ccc(C(=O)NS(=O)(=O)c4ccc(N[C@H](CCN5CCOCC5)CSc5ccccc5)c(S(=O)(=O)C(F)(F)F)c4)cc3)CC2)C1: “fraction of dose absorbed” 1.76 ± 1.04% (Caco-2 C2BBe1 monolayers; pulse-chase lymph lipoprotein secretion; medium; 50 % of saturated solubility, 2 h, chylomicron peak interval, oleic acid/2-monoolein).
For CCC[C@H](CC)Oc1ccc(C(=O)OC)cc1NC(=O)c1nnn(-c2cc(OC)c(OCCCCCCOCCOCC(=O)N[C@H](C(=O)N3C[C@H](O)C[C@H]3C(=O)NCc3ccc(-c4scnc4C)cc3)C(C)(C)C)cc2OC)c1C, mRNA level read “no effect” (SNU-C4 cells; RT-qPCR, refers to: PXR; 10 µM, 24 h).
For CC(=O)NCc1cc2c(cc1F)C(=O)N(C1CCC(=O)NC1=O)C2 (stereo not shown), the minimum viability was 95.4 ± 2.35% (Hep3B; CellTiter-Glo; concentration not given, 72 h).
The TC50 of Cc1cn([C@H]2C[C@H](N=[N+]=[N-])[C@@H](CO)O2)c(=O)[nH]c1=O is reported as > 50 µM (human PBMC; cytotoxicity, XTT; BCF01 line).
COc1ccc2c(C[Se][C@@H]3O[C@H](CO)[C@H](O)[C@H](O)[C@H]3O)cc(=O)oc2c1 gave a viability of 101 ± 17.2% (THP-1 macrophages (PMA-differentiated); WST-1; 100 µM, 24 h).
For c1cc2cc(CNCC3(N4CCCC4)COC3)ccc2[nH]1, the viability was 98.4% (HEK; 30 µM, 48 h, 10% FBS; reference: DMSO).
COc1cccc(-c2n[nH]c(SCc3ccccn3)n2)c1OC — result for “micronuclei per binucleated cell”: 0.014 (CHO-WBL; 16 µg/mL, 19 h, without S9).
For C#CCS(=O)(=O)c1ccc(CCN(Cc2cc(Cl)ccc2OCCC)C(=O)Cc2ccsc2)cc1, “reduction of viability” read 19% (J774.A1; MTT; 10 µM, 4 h).
Cc1ncc([N+](=O)[O-])n1CCO has a CC50 of 275 µM (pigeon embryo fibroblast (PEF)).
With O=C1Nc2ccccc2C1=Cc1ccccn1 the CC50 was > 100 µM (mouse primary peritoneal macrophages; LDH release).
CO[C@H]1/C=C/O[C@@]2(C)Oc3c(C)c(O)c4c(c3C2=O)C2=NC3(CCN(CC(C)C)CC3)NC2=C(NC(=O)/C(C)=C/C=C/[C@H](C)[C@H](O)[C@@H](C)[C@@H](O)[C@@H](C)[C@H](OC(=O)Nc2c(C)nc3ccccn23)[C@@H]1C)C4=O — result for “intracellular to extracellular ratio”: 17 (THP-1 derived macrophages; cellular uptake).
Under “cells with structural aberrations”, c1csc(CNc2cc[nH]n2)c1 is recorded as 1.5% (human peripheral blood lymphocytes (female); 1560 µg/mL, 4 h, initial, together with: with S9).
With Cc1cc(C(=O)NC(C)(C)COc2cccc3c2C(N)=NS(=O)(=O)N3)cc(C)n1 the cytotoxicity was 1% (human peripheral blood lymphocytes; CBPI, preliminary test; 2000 µg/mL, 4 h; reference: vehicle control).
With CC(=O)OC[C@H]1O[C@@H]([Se]Cc2ccc3ccccc3n2)[C@H](OC(C)=O)[C@@H](OC(C)=O)[C@@H]1OC(C)=O the viability was 132 ± 4.4% (THP-1 macrophages (PMA-differentiated); WST-1; 25 µM, 24 h).
The IC50 of CC(C)C[C@@H](NC(=O)[C@H](C)NC(=O)CNC(=O)[C@@H](NC=O)C(C)C)C(=O)N[C@@H](C)C(=O)N[C@@H](C(=O)N[C@H](C(=O)N[C@@H](C(=O)N[C@@H](Cc1c[nH]c2ccccc12)C(=O)N[C@H](CC(C)C)C(=O)N[C@@H](Cc1c[nH]c2ccccc12)C(=O)N[C@H](CC(C)C)C(=O)N[C@@H](Cc1c[nH]c2ccccc12)C(=O)N[C@H](CC(C)C)C(=O)N[C@@H](Cc1c[nH]c2ccccc12)C(=O)NCCO)C(C)C)C(C)C)C(C)C is reported as 0.00614 ± 0.0005 µM (P388 (mouse); cytotoxicity, WST-1; 92 h).
COc1cc2ncnc(Nc3ccc(Oc4ccccc4)c(C)c3C)c2cc1OC.Cl has a viability fraction of 0.979 (LoVo (KRAS G13D); resazurin; 0.1 µM, 72 h, together with: trametinib 0 nM; reference: DMSO).
CC(C)(c1ccc(O)cc1)c1ccc(O)cc1 gave a viable cells of 46.7 ± 11.3% (HepG2 spheroids, dissociated; annexin V-FITC/PI flow cytometry; 0.10 µM, 96 h).
FC1CCN(C2(CNCc3ccc(-c4ccccc4Cl)o3)COC2)C1 (stereo not shown) gave a viability of 77.3% (HEK; 30 µM, 48 h, 10% FBS; reference: DMSO).
CO[C@H]1/C=C/O[C@@]2(C)Oc3c(C)c(O)c4c(O)c(c(/C=N/N5CCN(C)CC5)c(O)c4c3C2=O)NC(=O)/C(C)=C\C=C\[C@H](C)[C@H](O)[C@@H](C)[C@@H](O)[C@@H](C)[C@H](OC(C)=O)[C@@H]1C gave an EC50 of 0.0642 µM (pooled human hepatocyte co-culture; mRNA induction, refers to: CYP2C8 mRNA; 48 h).
Cc1cc(NC(=O)Nc2ccc3c(c2)OC(F)(F)O3)cc(C(F)(F)F)n1 has an IC50 of 5.9 to 11 µM (primary mouse macrophages; cytotoxicity).
C[S+](C)[O-]: “rosette emergence inhibitory level” > 0.1 % v/v (WA09 hESC-derived forebrain rosette tissues; concentration not given).
Brc1ccc(COc2ccccc2CNCc2cccnc2)cc1 has a cytotoxic concentration of > 12.5 µM (J774.A1).
The viability of CCc1nc(N)nc(N)c1-c1ccc(Cl)cc1 is reported as 108% (uninfected human foreskin fibroblasts; MTT; 50 µM, 48 h).
C#CCNS(=O)(=O)c1ccc(CCN(Cc2cc(Cl)ccc2OCCC)C(=O)c2ccc(O)cc2)cc1 — result for “reduction of viability”: 16% (J774.A1; MTT; 10 µM, 4 h).
N=C(N)NCCCCC(=O)N[C@@H](CCC(N)=O)C(=O)N[C@@H](CCc1ccccc1)C(=O)N[C@@H](CCCNC(=N)N)C(O)c1nc2ccccc2s1 (stereo partly shown): cytotoxicity “not toxic” (Vero E6; CellTiter-Glo; 10 µM, 24 h; reference: DMSO).
The intracellular/extracellular ratio of CO[C@H]1/C=C/O[C@@]2(C)Oc3c(C)c(O)c4c(c3C2=O)C2=NC3(CCN(CC(C)C)CC3)NC2=C(NC(=O)/C(C)=C\C=C\[C@H](C)[C@H](O)[C@@H](C)[C@@H](O)[C@@H](C)[C@H](OC(C)=O)[C@@H]1C)C4=O is reported as 26.4 (THP-1 derived macrophages; 30 min; reference: intracellular over extracellular).
The minimum viability of O=C1CCC(N2Cc3cc(CO)c(F)cc3C2=O)C(=O)N1 (stereo not shown) is reported as 89.4 ± 2.24% (Hep3B; CellTiter-Glo; concentration not given, 72 h).
Clc1ccccc1-c1ccc(CNCC2(N3CCCC3)COC2)o1 has a viability of 87.3% (HEK; 30 µM, 48 h, 10% FBS; reference: DMSO).
For CC[C@]1(C)C[C@@H](OC(=O)CSc2nnc(N)[nH]2)[C@]2(C)[C@H](C)CC[C@]3(CCC(=O)[C@H]32)[C@@H](C)[C@@H]1O, the Emax was 9.42 fold (pooled human hepatocyte co-culture; mRNA induction, refers to: CYP2B6 mRNA; 48 h; reference: vehicle).
The cytotoxic concentration of Clc1ccc(COc2ccccc2CNCc2ccccc2)cc1 is reported as > 12.5 µM (J774.A1).
The CC50 of CN1CCN(c2cnc3c(cc(C(=O)NCc4ccc(Cl)cc4)c(=O)n3CC(=O)N3CC(C)(F)C3)n2)C1=O is reported as > 40 µM (Vero cells; cell viability, CCK-8; 5 days).
O=C(CCc1cc(C(=O)c2ccc(OC3CCCC3)cc2O)ccc1OCc1ccc2c(O)noc2c1)NCCOCCOCCOCCOCCOCCOCCNc1cccc2c1C(=O)N(C1CCC(=O)NC1=O)C2=O (stereo not shown) has a TD50 of 1090 µM (TIGK gingival epithelial cells; cell proliferation, CCK-8; 48 h).
C[C@H]1C[C@@H](N2C(=N)N[C@](C)(c3cccc(NC(=O)c4cccc(C#N)c4)c3Cl)CC2=O)CCO1 — result for phototoxicity: “negative” (Balb/c 3T3 fibroblast; up to 100 µg/mL).
Clc1cccc(COc2ccccc2CNCc2ccccc2)c1 has a cytotoxic concentration of > 12.5 µM (J774.A1).
With O=C(O)c1cccc(Cc2ccc3cc[nH]c3c2)c1 the CC50 was > 500 µM (HL2/3 and TZM-bl co-culture; 6 h, 0% serum).

Repeated from above:
C[S+](C)[O-]: “rosette emergence inhibitory level” > 0.1 % v/v (WA09 hESC-derived forebrain rosette tissues; concentration not given).
Brc1ccc(COc2ccccc2CNCc2cccnc2)cc1 has a cytotoxic concentration of > 12.5 µM (J774.A1).
